Experimental data collected from several papers.
Protocols differ between the studies behind these lines. Several values in a cell are separate wells, animals, samples, runs or records.
MAP3K7: Mitogen-activated protein kinase kinase kinase 7 (MAP3K7, Homo sapiens, UniProt O43318)
MAP3K7 with TAB1: Mitogen-activated protein kinase kinase kinase 7, with TAB1 (MAP3K7, Homo sapiens, UniProt O43318)

| SMILES | target | test | test system | setting | scale | endpoint | result |
| --- | --- | --- | --- | --- | --- | --- | --- |
| O=C(O)CCC(=O)c1cccc(NS(=O)(=O)c2c[nH]c3ncccc23)c1 | MAP3K7 | kinase activity, radiometric |  | 10 µM |  | remaining activity | 106% |
| c1ccc2c(Nc3cc(C4CCC4)[nH]n3)nc(Nc3ccc4nc[nH]c4c3)nc2c1 | MAP3K7 | enzyme activity, inhibitor |  | 0.25 µM |  | remaining activity | 2% |
| CNC1C[S+]2CC[S+]3CC[S+](C1)[Ru-4]321([N]=C=S)[n]2c3ccc(OC)cc3c3c4c(c5cc(F)c[n+]1c5c32)C(=O)NC4=O (stereo not shown) | MAP3K7 | KinomeScan |  | 0.1 µM | reference: untreated | remaining binding | 99% |
| COc1cc(Nc2nccc(-c3cnn4nc(OC)ccc34)n2)cc(C(F)(F)F)c1 | MAP3K7 | binding, competition with immobilised ligand |  | 1 µM |  | remaining binding | 78% |
| COc1ccc(NC(=O)Nc2ccc3c(c2)C(=O)N(C(C)CO)CC(C)C(CN(C)Cc2ccc4c(c2)OCO4)O3)cc1 (stereo not shown) | MAP3K7 | kinase activity, KinaseProfiler |  | 0.03 µM, species human | reference: control | remaining activity | 82% |
| C=CC(=O)N1CCCC(n2c(=O)c3ncccc3n(Cc3ccc(Oc4ccccc4)cc3)c2=O)C1 (stereo not shown) | MAP3K7 | cell-free assay, competition with immobilised ligand |  | 1 µM |  | remaining binding | 84% |
| Cn1cc(-c2cnc3ccc(NC(=O)Nc4ccc5sccc5c4)cc3n2)cn1 | MAP3K7 | kinase binding, KiNativ profiling, item: Lys2 peptide | PANC-1 lysate | 2.5 µM |  | inhibition | 1.9% |
| CC(C)=CC1OC(C)(C)C2C=C3C(=O)C(Cl)=CC(O)C3C3C(O)C4OC4C(=O)C132 (stereo not shown) | MAP3K7 | cell-free assay, competition with immobilised ligand |  | 10 µM |  | remaining binding | 78% |
| Cc1cnc2nc1Nc1cccc(c1)COC/C=C/COCc1cc(ccc1OCCN1CCOCC1)N2 | MAP3K7 | binding, competition with immobilised ligand |  | 0.1 µM |  | remaining binding | 94% |
| Cc1cccc(O[C@H]2CCC[C@@H](C(C)CNCc3ccncc3)C2)c1 (relative stereo) | MAP3K7 with TAB1 | kinome profiling |  | 10 µM |  | inhibition | 7% |
| CCN1CCN(Cc2ccc(C(=O)Nc3ccc(C)c(NCc4cnc5[nH]ccc5c4OC)c3)cc2C(F)(F)F)CC1 | MAP3K7 | binding, competition with immobilised ligand |  | 1 µM |  | remaining binding | 11% |
| C=CC(=O)Nc1cccc(-c2cnc3[nH]cc(C(=O)NC(C)(C)C)c3n2)c1 | MAP3K7 with TAB1 | kinase activity, inhibitor, kinase panel |  | 0.1 µM |  | inhibition | 17% and 16% |
| CN1CC[C@@H](COc2cnc(C#N)cc2-c2ccn3nc(NC(=O)C4CC4)cc3c2)C1 | MAP3K7 | enzyme activity, inhibitor |  | 1 µM |  | inhibition | -3% |
| NC(=O)C[C@H]1CCc2sc3ncnc(O[C@H]4CC[C@H](N5CCOCC5)CC4)c3c21 | MAP3K7 | enzyme activity, inhibitor |  | 10 µM |  | inhibition | 0% |
| Nc1ncc2c(n1)-c1c([nH]c3ccc(C4=CCOCC4)cc13)CCC2 | MAP3K7 | binding, competition with immobilised ligand |  | 1 µM |  | remaining binding | 100% |
| C=CC(=O)N1Cc2nc(-c3cc(-c4cc(Cl)cnc4Cl)c(F)cc3F)n(-c3ccncn3)c2C1 | MAP3K7 with TAB1 | kinome panel |  | 1 µM |  | inhibition | 1.2% |
